Experimental data gathered from unrelated publications.
A part holds a random share of what one study measured.

Study 1 — method: protein-binding microarray; molecule type: double-stranded DNA, one strand shown; medium: in vitro; concentration: 940 nM top; notes: 60-bp whole probe; added: salmon DNA 0.4 mg/ml; baseline: random background probes; direction: higher = stronger binding; shared flanks, not repeated: GCCTAGCAC … GTCTTGATTCGCTTGACGCTGCTG
Target: Interferon regulatory factor 5, full length, phosphomimetic (IRF5, Homo sapiens, UniProt Q13568-2, residues 1-514, S451D/S453D/S456D/S462D)
Sequence | fitted relative affinity [z-score]
GACGATTTCAGTATCGAGAGGTGCTAG | 2.48
TTAGGACTCCTTTTCCTTTAGTGCTAG | 0.0911
GTTCTACCTCTGCCTTTTGTGTGCTAG | 1.14
TTAGGTATCGAATATCGGTTAGTGCTA | 3.66
TAAGATTTCAGTTTCGATTAGTGCTAG | 9.98
TCAGCTTTCCCGTCCAGACTGTGCTAG | 0.774
GACCATATCGGGACTGGAGACGTGCTA | -0.441
TTAGATTTCCGACTGGATTAGTGCTAG | -0.228

Study 2 — method: universal PBM; molecule type: double-stranded DNA, one strand shown; medium: in vitro; concentration: not given; direction: higher = stronger binding
Target: Sal-like protein 4, full length isoform B (SALL4, Homo sapiens, UniProt Q9UJQ4-2, residues 1-616)
Notes: 8-mer, flanks averaged, mean of replicates
Construct (chain): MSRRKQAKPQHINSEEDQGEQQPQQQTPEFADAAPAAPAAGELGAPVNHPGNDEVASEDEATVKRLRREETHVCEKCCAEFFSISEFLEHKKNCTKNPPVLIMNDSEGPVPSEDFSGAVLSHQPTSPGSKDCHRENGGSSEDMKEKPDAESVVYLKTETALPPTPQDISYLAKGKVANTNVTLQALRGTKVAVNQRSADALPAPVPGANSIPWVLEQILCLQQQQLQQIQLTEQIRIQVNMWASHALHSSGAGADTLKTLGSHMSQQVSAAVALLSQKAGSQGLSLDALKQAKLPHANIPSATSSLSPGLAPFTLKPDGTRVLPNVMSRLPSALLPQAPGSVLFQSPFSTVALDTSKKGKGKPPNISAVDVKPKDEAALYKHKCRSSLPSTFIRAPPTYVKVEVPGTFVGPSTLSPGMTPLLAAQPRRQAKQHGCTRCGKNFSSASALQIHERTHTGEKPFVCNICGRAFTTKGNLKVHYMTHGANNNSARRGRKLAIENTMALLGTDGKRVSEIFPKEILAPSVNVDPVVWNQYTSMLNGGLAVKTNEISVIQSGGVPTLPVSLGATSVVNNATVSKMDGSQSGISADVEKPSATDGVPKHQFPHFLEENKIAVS
Sequence | E-score
TCACATCA | 0.0403
TACTATCA | 0.133
CTCGAGAG | -0.162
ATTGCTTG | 0.121
CTAAAAAG | 0.135
CTGCGGAA | -0.172
CGAGAAAG | 0.0309
ATGTGGCG | -0.0773

Study 3 — effect on: enzyme activity; mode: inhibitor; concentration: 20 µM
Target: Replicase polyprotein 1ab, polymerase (rep, Severe acute respiratory syndrome coronavirus 2, UniProt P0DTD1)
SMILES | inhibition [%]
Nc1nc2c(c(=O)[nH]1)NC(CNc1ccc(C(=O)N[C@@H](CCC(=O)O)C(=O)O)cc1)CN2 (stereo partly shown) | 9.61
O=S(=O)(N[C@H](CO)C(C(F)(F)F)C(F)(F)F)c1ccc(Cl)s1 | -1.9
CCCCC1CCC(c2nc(-c3ccncc3)no2)CC1 (stereo not shown) | -2.18
NC(=O)C[S+]([O-])C(c1ccccc1)c1ccccc1 (stereo not shown) | -6.98
CC(C)[C@@H](C)/C=C/[C@@H](C)[C@H]1CC[C@H]2/C(=C/C=C3\C[C@@H](O)CC[C@@H]3C)CCC[C@]12C | 2.55
Fc1ccc(Cl)cc1-c1nc(Nc2ccncc2)c2nccnc2n1 | -3.15
C=CC(=O)Nc1ccc2ncnc(Nc3cccc(Br)c3)c2c1 | 2.18
Nc1ccn([C@H]2C[C@H](O)[C@@H](CO)O2)c(=O)n1 | -0.94
N[C@@H]1CCN(O)C1=O | 1.95
Cc1ccc(NC(=O)c2cccc(C(C)(C)C#N)c2)cc1Nc1ccc2ncn(C)c(=O)c2c1 | -13.8
COc1cc2c(cc1OCCCN1CCCC1)N=C(N)C21CCC1 | 1.25
O=C(CCc1ccc(O)cc1)c1c(O)cc(O)cc1O | 4.23
CN(C)CCN(Cc1ccc(Cl)cc1)c1ccccn1 | 3.73
C/C1=C/C[C@@H](/C(C)=C/c2csc(C)n2)OC(=O)C[C@H](O)C(C)(C)C(=O)[C@H](C)[C@@H](O)[C@@H](C)CCC1 | 0.94

Mixed results — concentration: 10 µM
SMILES | tested on | assay | system | conditions | scale | endpoint | result
Clc1ccc(CCC(Cn2ccnc2)Sc2c(Cl)cccc2Cl)cc1 (stereo not shown) | HEK-293T/ACE2 |  |  | 16 h | baseline: vehicle | viability | 97.7%
O=[N+]([O-])c1ccc(Sc2cccc[n+]2[O-])c2nonc12 | SARS-CoV-2 | cytopathic effect | Vero E6 |  |  | inhibition | -17.5%
Oc1cc(Cl)ccc1Oc1ccc(Cl)cc1Cl | HEK-293T | pseudovirus infection, FDA-approved drug library screen | VSV pseudotyped with SARS-CoV-2 spike | 16 h | baseline: vehicle-treated | GFP-positive cells | 86.2%
c1cnc(SCc2cccnc2)nc1 | SARS-CoV-2 | cytopathic effect | Vero E6 |  |  | inhibition | -4%
